{"data": "Measurements collected from several papers", "cell line": "MT4", "note": "Each line is one published result; not all experiments were run side by side."}
{"Compound": "Cc1cc(C)cc(S(=O)(=O)c2c(C(=O)NC3CC4(C3)CN(Cc3n[nH]c(=O)[nH]3)C4)[nH]c3ccc(Cl)cc23)c1", "effect on": "cell growth or viability", "method": "MTT", "time": "5 days", "CC50 [µM]": 65.6}
{"Compound": "COc1cc(F)c(C(=O)c2ccnc(Nc3ccc(C#N)cc3)n2)c(F)c1", "effect on": "cell growth or viability", "method": "ATP luminescence", "time": "5 days", "CC50 [µM]": 57.1}
{"Compound": "O=C(CCN(CCC(=O)NC(Cc1c[nH]c2ccccc12)C(=O)O)C(=O)CCOCC(COCCC(=O)N(CCC(=O)NC(Cc1c[nH]c2ccccc12)C(=O)O)CCC(=O)NC(Cc1c[nH]c2ccccc12)C(=O)O)(COCCC(=O)N(CCC(=O)NC(Cc1c[nH]c2ccccc12)C(=O)O)CCC(=O)NC(Cc1c[nH]c2ccccc12)C(=O)O)COCCC(=O)N(CCC(=O)NC(Cc1c[nH]c2ccccc12)C(=O)O)CCC(=O)NC(Cc1c[nH]c2ccccc12)C(=O)O)NC(Cc1c[nH]c2ccccc12)C(=O)O (centres unmarked)", "time": "5 (unit not given)", "CC50 [µM]": "> 100"}
{"Compound": "Cc1cc(C)cc(S(=O)(=O)c2c(C(N)=O)[nH]c3ccc(Cl)cc23)c1", "effect on": "cell growth or viability", "method": "MTT", "time": "5 days", "CC50 [µM]": 5.52}
{"Compound": "COc1cccc2c(Oc3c(C(F)(F)F)ccn(Cc4n[nH]c(=O)n4C)c3=O)cc(C)nc12", "effect on": "cell growth or viability", "method": "MTT", "CC50 [µM]": 244}
{"Compound": "O=C(CCN(CCC(=O)NC(Cc1c[nH]c2ccccc12)C(=O)O)C(=O)c1cc(C(=O)N(CCC(=O)NC(Cc2c[nH]c3ccccc23)C(=O)O)CCC(=O)NC(Cc2c[nH]c3ccccc23)C(=O)O)cc(C(=O)N(CCC(=O)NC(Cc2c[nH]c3ccccc23)C(=O)O)CCC(=O)NC(Cc2c[nH]c3ccccc23)C(=O)O)c1)NC(Cc1c[nH]c2ccccc12)C(=O)O (centres unmarked)", "time": "5 (unit not given)", "CC50 [µM]": "> 100"}
{"Compound": "N#Cc1ccc(Nc2nccc(C(=O)c3c(F)cc(F)cc3F)n2)cc1", "effect on": "cell growth or viability", "method": "ATP luminescence", "time": "5 days", "CC50 [µM]": 57.1}
{"Compound": "Cc1cccc(-c2cc(C#N)cc(Oc3c(C(F)(F)F)ccn(Cc4n[nH]c(=O)n4C)c3=O)c2)c1", "effect on": "cell growth or viability", "method": "MTT", "CC50 [µM]": 26.4}
{"note": "Some of these lines once more:"}
{"Compound": "O=C(CCN(CCC(=O)NC(Cc1c[nH]c2ccccc12)C(=O)O)C(=O)c1cc(C(=O)N(CCC(=O)NC(Cc2c[nH]c3ccccc23)C(=O)O)CCC(=O)NC(Cc2c[nH]c3ccccc23)C(=O)O)cc(C(=O)N(CCC(=O)NC(Cc2c[nH]c3ccccc23)C(=O)O)CCC(=O)NC(Cc2c[nH]c3ccccc23)C(=O)O)c1)NC(Cc1c[nH]c2ccccc12)C(=O)O (centres unmarked)", "time": "5 (unit not given)", "CC50 [µM]": "> 100"}
